Measurements of several laboratories.
Every numbered part comes from another study and shows a few of its results, in no order.

Study 1 — technique: RNA Bind-n-Seq; form: RNA; matrix: in vitro; tested at: not given; notes: RNA with constant flanks, ends assumed; baseline: input RNA pool; direction: higher = stronger binding
Target: RING finger protein unkempt homolog, zinc fingers 1-6, GST-SBP tag (UNK, Homo sapiens, UniProt Q9C0B0, residues 30-357)
Sequence of UniProt Q9C0B0 (30-357, looked up): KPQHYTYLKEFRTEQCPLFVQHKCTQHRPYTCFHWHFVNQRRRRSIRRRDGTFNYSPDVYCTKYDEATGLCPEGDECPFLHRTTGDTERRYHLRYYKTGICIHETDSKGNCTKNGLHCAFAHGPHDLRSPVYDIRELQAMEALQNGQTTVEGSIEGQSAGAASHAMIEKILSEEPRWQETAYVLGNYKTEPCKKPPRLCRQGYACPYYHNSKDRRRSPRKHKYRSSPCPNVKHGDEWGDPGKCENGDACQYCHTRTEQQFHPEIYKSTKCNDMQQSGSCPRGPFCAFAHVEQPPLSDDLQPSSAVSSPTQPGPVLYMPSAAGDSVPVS
Sequence | bound/input enrichment
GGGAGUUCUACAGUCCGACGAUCUGGUAUGGCCUCGGGCAGACCUAUGAAAUCCUUAAGAUGCCAUUUUACUGCCUUUAUUAUUACCGACGGGCCCACCAGCUUCGACCCAAUGAUUCUCGCAUGCUGGUUGCUUUAGGAGAACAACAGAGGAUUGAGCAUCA | 0.193 ratio
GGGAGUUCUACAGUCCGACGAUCACUACCCUUUCUGGGGUCCAAGAAGAAUCUGCCCUUUGCUAUCUUCUCCAAGUUGAUGAGUUCCGAUUUUUAUUGGACUGUGGCUGGGAUGAGCACUUUUCUAUGGAUAUUAUUGAUUCCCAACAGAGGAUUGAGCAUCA | 0.306 ratio
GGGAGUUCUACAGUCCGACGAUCCUUAAAGAGCUUGAAGCUAAAGCCUAUAAACAGAUUGAUGCACGUGGUGGGAACCCUGAGCCCGCCGCCUUAGUAAAACACUUAAGUAAGAUGUUCAAAGAAGAAAAUGAAUAAUGUUAACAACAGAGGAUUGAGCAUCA | 2.49 ratio
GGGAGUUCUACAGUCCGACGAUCGCCUUAGCUGCAUCUUGGACCUCAAGACAAGUAGGAGAACGGACGUUGACCGGUACGGUAACCGACAGUGGAGAUGGUGUCACUCAUGUCAUUCCUGUGGCUGAAGGGUAUGUGAUUGGCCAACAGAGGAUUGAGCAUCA | 0.178 ratio
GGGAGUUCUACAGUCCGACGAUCAAUCUCAUGAAAGCAGAACAGAUGCAUCAAAGUUUUGUGGCUGAAACAAGUCAGCGCAUCCGUAAGUUACAGGAAGACACUUCUGCUCACCAGAAUGUUGUUGCUGAAACCUUAAGUGCCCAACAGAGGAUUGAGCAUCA | 0.237 ratio
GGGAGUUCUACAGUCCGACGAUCAAGAGGAAGAAGGUUAAGUUGGCUGUGCUGAAAUACUAUAAGGUGGAUGAAAAUGGCAAAAUCCGCCGACUUCGUCGAGAGUGUCCUUCUGAUGAAUGUGGUGCUGGAGUUUUCAUGGGACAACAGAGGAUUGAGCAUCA | 0.261 ratio
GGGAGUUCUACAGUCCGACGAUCAACGAUGUUGAAGUCAAAUGGAUUGAAUACCAGAAUAUGGUGAACUACCUCAUCCAGUGGAUCCGACACCACGUGGUCACUAUGUCCGAGAGAACAUUUCCUAACAACCCUCUAGAACUACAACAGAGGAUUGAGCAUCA | 0.171 ratio
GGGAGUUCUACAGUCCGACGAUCAGAAGGGUGUUUGCAGUUUUGCAGGCCUCUGUGGCCUGGGCUUUCUAUGCUGCGAAUAUUACCCGAAGCUGGAUUCCUUUAAGGAGACUUGUAGUGAAAAUGUUUGUCUGGAUGUUCCUCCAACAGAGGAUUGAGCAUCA | 0.191 ratio

Study 2 — technique: protein-binding microarray; form: double-stranded DNA, one strand shown; matrix: in vitro; tested at: 940 nM top; notes: 60-bp whole probe; added: salmon DNA 0.4 mg/ml; baseline: random background probes; direction: higher = stronger binding; all sequences stand within: GCCTAGCAC … GTCTTGATTCGCTTGACGCTGCTG
Target: Interferon regulatory factor 5, full length, phosphomimetic (IRF5, Homo sapiens, UniProt Q13568-2, residues 1-514, S451D/S453D/S456D/S462D)
Sequence | fitted relative affinity
GTAGATATCAGACTGGATTAGTGCTAG | -0.402 z-score
GACGGTATCAACACTGGGGACGTGCTA | 0.813 z-score
TTAGAACTGACTTTCGATTAGTGCTAG | 3.27 z-score
TTAGGTTTCCTTATCCGTTAGTGCTAG | 1.89 z-score
TCAATTTTCTTTAACTCACTGTGCTAG | 1.14 z-score
GACGGACTGGGTTCCGGGACGTGCTAG | -0.463 z-score
GACGAACTGACTTTCGAGACGTGCTAG | 0.909 z-score
CTCTTTCTCTGCTACCCTCTGGTGCTA | 2.39 z-score
TCAAGTGTTTTTCTCCTACTGTGCTAG | 0.556 z-score
TTAAATCTCAGTCTCGATTAGTGCTAG | 3.66 z-score
TTAGGTCTCCTACTGCTTTAGTGCTAG | -0.151 z-score
GACGATATCAGTATAGAGACGTGCTAG | 0.0852 z-score
CTATCTCTGTTTTTGCTTTCGTGCTAG | 2.7 z-score
GACGATATCGGGTATCGAGATGTGCTA | 1.2 z-score
GACGATTTCAGTTCCGAGATGTGCTAG | 0.613 z-score
GACGGTATGGGGACTGGGGACGTGCTA | 0.0258 z-score
TTAGATATCGGGTTTCAATTAGTGCTA | 1.38 z-score
GACGATTTCAGACTGGACACGTGCTAG | -0.361 z-score
ACTAATTTCCATTTTCTAAAGTGCTAG | 1.38 z-score

Study 3 — technique: competition protein-binding microarray; form: double-stranded DNA, one strand shown; matrix: in vitro; tested at: 2 µM; added: Pho4 competitor, 0.05 µM; direction: higher = stronger binding
Target: Centromere-binding protein 1, full length, His-tagged (CBF1, Saccharomyces cerevisiae, UniProt P17106, residues 1-351)
Sequence of UniProt P17106 (whole entry, looked up): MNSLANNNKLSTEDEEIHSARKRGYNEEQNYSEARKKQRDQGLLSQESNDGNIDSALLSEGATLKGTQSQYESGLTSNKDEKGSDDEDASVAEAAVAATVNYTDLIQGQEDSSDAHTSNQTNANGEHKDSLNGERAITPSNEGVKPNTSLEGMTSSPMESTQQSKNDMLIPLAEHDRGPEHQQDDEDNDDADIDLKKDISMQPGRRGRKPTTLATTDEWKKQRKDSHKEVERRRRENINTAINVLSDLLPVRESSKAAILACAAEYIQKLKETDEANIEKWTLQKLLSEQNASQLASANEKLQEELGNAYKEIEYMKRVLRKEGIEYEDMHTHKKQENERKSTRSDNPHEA
Notes: whole 60-bp probe, lowest competitor level
Sequence | fluorescence intensity [a.u.]
AAGGTTTCGTTATCTACCGTGTCGGAGTTAGAAGTGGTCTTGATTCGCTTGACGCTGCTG | 66
CGTCCTAGTGATTGCTGAGTGGGTGCCATGAGGAAGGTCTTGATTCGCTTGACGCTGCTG | 73.1
CCTGGACCTCCTGACCACGTGGTACTGCAGCTTCAAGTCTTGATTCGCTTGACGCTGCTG | 1660
CCTAGAGAGCGGCACCACGCGGACTCGACGGCCGCGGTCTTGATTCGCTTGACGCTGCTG | 53.7
TTGTTCGAGTCTTTGCACGATCAAGCCTTTACTCTGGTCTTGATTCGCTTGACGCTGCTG | 63.9
CGGGGTTAAGTTTGGCTAGTGGGTGGCTTGCAGCAGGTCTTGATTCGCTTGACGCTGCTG | 69.2
TGCGCAACAACTTGTGCAGTGGGTGTATGTCTAGAAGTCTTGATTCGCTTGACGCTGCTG | 67.6
GTCTTGTCTCATTGTCACCTGACTTTCCCCACTTCAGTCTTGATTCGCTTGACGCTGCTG | 1480
CTTCTGTAAATTTGGGGGGTGGGTGGACGCGCCCCGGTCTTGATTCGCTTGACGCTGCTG | 103
TTTCTCATATACCGTCACGTGGCCGGATGTTTATCGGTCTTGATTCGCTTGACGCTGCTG | 5110
CACAACCTTAACAGCAACGTGAACCTCAACATGAACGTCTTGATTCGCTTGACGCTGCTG | 116
TATAATCCTGGTCGGAACGTGCAAAATATGAGAACGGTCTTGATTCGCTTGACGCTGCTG | 113
AAAAGCGTCAAAAAACTCGTGTAAGAGGTCAAAAAGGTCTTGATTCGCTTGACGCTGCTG | 99.6
AAAAGTAACCATAGTCTCGTGCTAATTCGGTACTATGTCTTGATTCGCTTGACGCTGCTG | 230
CTTTCCCGATCTTTTCACGTGACTTTAGCACATTTGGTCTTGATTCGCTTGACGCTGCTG | 7580
CGGGGTTAAGTTTGCCTAGTGGGTGGCTTGCAGCAGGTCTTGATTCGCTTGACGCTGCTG | 67.3
TGCGCAACAACTTGCGACGTGGGTGTATGTCTAGAAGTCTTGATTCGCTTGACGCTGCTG | 73.5
GTCTTGTCTCATTGGTGGGTGGGTGTCCCCACTTCAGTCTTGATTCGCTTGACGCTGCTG | 89.6
CTTCTGTAAATTTGCCATGTGGGTGGACGCGCCCCGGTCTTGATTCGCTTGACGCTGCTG | 114

Study 4 — technique: protein binding microarray; form: double-stranded DNA, one strand shown; matrix: in vitro; tested at: not given; baseline: not given; direction: higher = stronger binding
Target: Histone acetyltransferase KAT6A, winged helix 1, GST fusion (KAT6A, Homo sapiens, UniProt Q92794, residues 1-85)
Notes: 8-mer, flanks averaged, mean of 2 arrays, mostly near background
Residues (chain): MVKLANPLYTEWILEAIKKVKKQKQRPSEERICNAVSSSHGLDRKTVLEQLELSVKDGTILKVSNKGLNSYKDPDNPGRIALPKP
Sequence | E-score
ATCACTCG | -0.103
AAGGGTGC | -0.067
ATCAGCTA | -0.166
ACATTAGG | -0.105
CTAGAACC | -0.0678
CATGATAG | -0.127
GGAACACA | -0.146
AAAGGCAA | -0.184
ATTTCTAA | -0.12
CTGGCAAA | -0.241
CAGTCCAC | -0.175
GACGTCTA | -0.0587
CTCACCTA | -0.0955
GCAAGACA | 0.0789
CCGAACCC | 0.0663
CCCTTAAA | -0.173
CTTCAGAA | -0.194
AAGACGGG | 0.225
CTGTAGAA | -0.299
AAACGGAT | -0.00016
AAACTTAG | -0.112
ACAAGCCC | -0.0274
TACGACGA | -0.244
CATTTACG | 0.0705
CCAGCACA | -0.256
